# Results collected from several papers.
# Each numbered part is a random draw from the data of one study; scales do not carry over between parts.

# Sample 1 — method: competition protein-binding microarray; molecule type: double-stranded DNA, one strand shown; medium: in vitro; tested at: 2 µM; together with: Pho4 competitor, 0.05 µM; direction: higher = stronger binding; shared flanks, not repeated: … GTCTTGATTCGCTTGACGCTGCTG
# Target: Centromere-binding protein 1, full length, His-tagged (CBF1, Saccharomyces cerevisiae, UniProt P17106, residues 1-351)
# Sequence of UniProt P17106 (whole entry, looked up): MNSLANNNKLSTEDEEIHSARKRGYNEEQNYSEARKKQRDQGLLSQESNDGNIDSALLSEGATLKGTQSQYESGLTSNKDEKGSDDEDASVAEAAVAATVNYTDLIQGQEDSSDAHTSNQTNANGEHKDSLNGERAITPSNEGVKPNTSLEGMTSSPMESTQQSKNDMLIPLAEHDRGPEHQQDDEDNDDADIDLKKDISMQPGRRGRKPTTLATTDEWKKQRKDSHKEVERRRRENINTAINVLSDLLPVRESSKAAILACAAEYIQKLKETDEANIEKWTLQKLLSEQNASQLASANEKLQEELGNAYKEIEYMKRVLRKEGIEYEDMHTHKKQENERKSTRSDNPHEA
# Setting: whole 60-bp probe, lowest competitor level
Sequence,fluorescence intensity [a.u.]
TGCGCAACAACTTGCGCAGTGGGTGTATGTCTAGAA,68.1
AAAGCGGTAATTTGAGGAGTGGGTGCAGATATCTAT,64.8
TCATTCAGCATTCTCTGCATGACAGCTCTGGCTTCA,66.3
ACTACTTTGAAGAATTGCGTGATGGATATCAAACTT,113
GGCGAATGGAAAAATCACCTGGCAAGTCATTTCATC,112
GGCATATTCTCTTGTAGTGTGACGGAAGGTGCGGGT,71.9
AAGTGGATTTGCCAGCCCGTGTCTGTTTAGAGATGT,75.1
CATACCCAACCTTGGGGCGTGGGTGAAGATATTTGT,68.8
ACTTTGTTATTAATCCACGTGAGGACCAAATCTATG,1780
AAAGCGGTAATTTGCAAAGTGGGTGCAGATATCTAT,74.6
CTCTTATCGGTATTACTTTCTTATCAATGAAAAATT,92.4
CGGGGTTAAGTTTGATCAGTGGGTGGCTTGCAGCAG,76.9
AGAAAAAAATCATCAAATGTGACGGGCAAATGGGGC,76.9
CATACCCAACCTTGTCACGTTACTTAAGATATTTGT,1090
CTTCTGTAAATTTGCGACGTGGGTGGACGCGCCCCG,68.5
ATACGTATGTGTTCGTACGTGCGATCCGCAAGGTCT,75.4
CGTCCTAGAGATTACCACGTGTTTTCCATGAGGAAG,1450
TGTGTTAGAATACACAGCGTGCCGAGTTCCTGGTGC,65.7
CTCCTGGCTGCCTGCCTCGTGGTGGTCAATTCGCTG,93

# Sample 2 — method: protein binding microarray; molecule type: double-stranded DNA, one strand shown; medium: in vitro; tested at: not given; reference: not given; direction: higher = stronger binding
# Target: Histone acetyltransferase KAT6A, winged helix 2, GST fusion (KAT6A, Homo sapiens, UniProt Q92794, residues 85-181)
# Setting: 8-mer, flanks averaged, mean of 2 arrays, mostly near background
# Construct (chain): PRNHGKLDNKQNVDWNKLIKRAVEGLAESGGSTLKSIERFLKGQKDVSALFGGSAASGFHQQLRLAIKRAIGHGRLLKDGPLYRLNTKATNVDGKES
Sequence,E-score
CCTCGTCG,0.0714
CAACTGGC,0.0952
CGTAGCTC,0.0016
CAAGACGA,-0.00175
ACAAAACT,0.0485
GCCCCCGA,0.00043
ATTAGTGA,0.017
ACTGAGCC,0.13
GCTGCTAA,0.147
CGACGTGC,-0.0365
ACTTCGCC,0.0853
CTCTGCCA,-0.175
CTAAAGGC,0.0711
AGCAACGG,0.059
GAGCGGCC,0.0814
ATCCACAT,-0.0678
GCTCGGCA,0.0588
GGACAGCA,0.0997
TTCCAAAA,0.0891

# Sample 3 — method: RNA Bind-n-Seq; molecule type: RNA; medium: in vitro; tested at: 365 nM; reference: no-protein control; direction: higher = stronger binding
# Target: RNA binding protein fox-1 homolog 2, RRM domain, GST-SBP tag (RBFOX2, Homo sapiens, UniProt O43251-10, residues 100-194)
# Setting: natural RNA segment, single round, ends assumed
# Shared flanks, not repeated: GGGAGUUCUACAGUCCGACGAUC … UGGAAUUCUCGGGUGCCAA
# Target sequence (chain): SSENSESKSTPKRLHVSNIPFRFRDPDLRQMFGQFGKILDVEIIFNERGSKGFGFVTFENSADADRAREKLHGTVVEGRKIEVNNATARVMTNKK
Sequence,RBNS enrichment (R)
UCAAUGAACAGUAAUAAUUUCCCAAUUUACAGAUUAGUGUCUACAAAGGUUUUCUUACAUCUUCUUCCAUUGCAUAAUAUGCCUUGUGUAAUAGUUAAGAAAUCAUUUUU,0.367
UAUUCUGUAUGUGGGUCCCAGACCCUGAUCAGGAAAUGAGCCUCAUGUGUGUCGUUAACAUUUAUAUAUUUCCAUUCAAAAUAUGUAUUCAGUGUUUAUUUCCUCAAAAC,0.322
GUGGGAAAUGAAACAGUGUUCUGAUCCAUUGCCAAAGGAUGUAGGAAAACAGUUGGGUUUUGUUCAACCUACUGUAAGCUCUGGUGUAUGUUCUCAAGGCUAAUUUAUCU,1.54
GGGUGUGCUGACAUGUUUGCUCUUGGUUGAUGGAGAAGGUACAGAGGCCAGGGAGUGAAAAUGGUUGACAGAAGAGGGAAGAGUUAGGUGUCUCAUAGUCACUCAUAGUG,1.37
UAAUGCCAGCUUUAGGACAGAAAGAAUUAUAAGAAAACCAGCAUAAUACCUGAUAUAUUAAAAUGUAGUGCCUGUGAAAUCUGUAUUAUAUUGCUCUUCUGAAGUAAGAU,2.23
AAAUCUGCACCUCUCUCUAUUUUAUUUGCCAGGGGCACGAUGUGACAUAUCUGCAGUCCCAGCACAGUGGGACAAAAAGAAUUUAGACCCCAAAAGUGUCCUCGGCAUGG,0.534
CUCAUGACAUCUGUAAAUGCUGCUGUGUCUGGAAAGAAAGUCUUUAAAUCACUGGUGAAAGUGGCAUCAUCAGAUAAUCUCAAUGGCCACUUGUUCUGGCAUUUAUAAAU,0.367
GGGCUCUAGAGAAAGCAGCUAGUGGUUUCUUUGUCUUGGAACAGGCAGGGUAAGGGUGGGCACAUUUAGGCCUCUUCUCCUCACACUGGCCCUGCCAUCAGCUUUUGGGG,0.521

# Sample 4 — method: RNA Bind-n-Seq; molecule type: RNA; medium: in vitro; tested at: 1 µM; setting: whole 134-nt RNA, ends assumed; together with: 150 mM KCl; reference: input library; direction: higher = stronger binding
# Target: Ras GTPase-activating protein-binding protein 1, C-terminal RGG region (G3BP1, Homo sapiens, UniProt Q13283)
# Sequence of UniProt Q13283 (whole entry, looked up): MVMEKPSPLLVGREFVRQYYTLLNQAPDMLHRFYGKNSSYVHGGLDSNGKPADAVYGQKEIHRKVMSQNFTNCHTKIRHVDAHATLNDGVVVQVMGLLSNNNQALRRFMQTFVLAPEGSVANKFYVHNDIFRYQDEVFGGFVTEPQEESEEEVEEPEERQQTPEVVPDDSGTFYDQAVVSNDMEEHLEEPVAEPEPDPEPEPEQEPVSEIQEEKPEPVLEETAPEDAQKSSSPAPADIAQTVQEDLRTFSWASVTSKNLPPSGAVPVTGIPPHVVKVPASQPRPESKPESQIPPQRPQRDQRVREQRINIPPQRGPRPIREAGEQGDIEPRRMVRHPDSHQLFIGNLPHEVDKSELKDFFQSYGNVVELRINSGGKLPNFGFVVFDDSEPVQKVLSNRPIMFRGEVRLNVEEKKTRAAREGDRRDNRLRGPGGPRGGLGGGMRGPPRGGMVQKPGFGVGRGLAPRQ
# Shared flanks, not repeated: GGGAGUUCUACAGUCCGACGAUC … UGGAAUUCUCGGGUGUCAAGG
Sequence,log2 enrichment
ACCAUGCAGGUGGGCAUCUUUGGGAAGUGGGGCAAGGGGGGGAUAGGGAGGGGGGCAACACUUUGGGAACAGGUGGUCCCAGGUCGUUUC,1.02
CUCAAGUCCUGUGCUACACAUCGUAUGUACCGAAUCGGUUUGGUUUGGGUUUGGAAAGUAUUAUGUUACGCCGUUCGGAUCUGCACUUCC,-0.951
AGUCCUGUGCUACACAUCGUAUGUACCGAAUCGGGGAGGGGUUUGGGGAAAAAGGGGAAAGUAUUAUGUUACGCCGUUCGGAUCUGCACU,1.77
CAAGUCCUGUGCUACACAUCGUAUGUACCGAAUCGGAAAAAAAGGAAAAAGGAGGAAAGUAUUAUGUUACGCCGUUCGGAUCUGCACUUC,-1.72
ACCAUGCAGGUGGGCAUCUUUGGGAAGUGGGGCAAGGGGGGGAUAGGGAGCGGGGUAACACUUUGGGAACAGGUGGUCCCAGGUCGUUUC,2.5
UAACUUUAGAGGAGAAUCUGAUGGAUAUGGCAGUGGACGUGGAUUUGGGGAUGGCUAUAAUGGGUAUGGAGGAGGACCUGGAGGUGGCAA,-1.51
UAGUGAUGAAAAAUUUCUCCCUUCUAGGUUUCCCUUGGGGGCUUUGAAAUAACACCACCAGUGGUCUUAAGGUUGAAGUGUGGUUCAGGG,-0.741
ACCAUUCAGGUGGGCAUCUUUGGGAAGUGGGGCAAGGGGGGGAUAGGGAGGGGGGUAACACUUUGGGAACAGGUGGUCCCAGGUCGUUUC,-1.14
UCCAUGCAGGUGGGCAUCUUUGGGAAGUGGGGCAAGGGGGGGAUAGGGAGGGGGGUAACACUUUGGGAACAGGUGGUCCCAGGUCGUUUC,-1.1

# Excerpt of the above (sample 2):
Sequence,E-score
ACTTCGCC,0.0853
CTCTGCCA,-0.175
CTAAAGGC,0.0711
AGCAACGG,0.059
GAGCGGCC,0.0814
ATCCACAT,-0.0678
GCTCGGCA,0.0588
GGACAGCA,0.0997
